Published values collected from several papers.
Each numbered part is a random draw from the data of one study; scales do not carry over between parts.

Series 1 — technique: universal PBM; molecule type: double-stranded DNA, one strand shown; matrix: in vitro; tested at: not given; direction: higher = stronger binding; endpoint: E-score
Target: Sal-like protein 4, full length isoform B (SALL4, Homo sapiens, UniProt Q9UJQ4-2, residues 1-616)
Notes: 8-mer, flanks averaged, mean of replicates
Residues (chain): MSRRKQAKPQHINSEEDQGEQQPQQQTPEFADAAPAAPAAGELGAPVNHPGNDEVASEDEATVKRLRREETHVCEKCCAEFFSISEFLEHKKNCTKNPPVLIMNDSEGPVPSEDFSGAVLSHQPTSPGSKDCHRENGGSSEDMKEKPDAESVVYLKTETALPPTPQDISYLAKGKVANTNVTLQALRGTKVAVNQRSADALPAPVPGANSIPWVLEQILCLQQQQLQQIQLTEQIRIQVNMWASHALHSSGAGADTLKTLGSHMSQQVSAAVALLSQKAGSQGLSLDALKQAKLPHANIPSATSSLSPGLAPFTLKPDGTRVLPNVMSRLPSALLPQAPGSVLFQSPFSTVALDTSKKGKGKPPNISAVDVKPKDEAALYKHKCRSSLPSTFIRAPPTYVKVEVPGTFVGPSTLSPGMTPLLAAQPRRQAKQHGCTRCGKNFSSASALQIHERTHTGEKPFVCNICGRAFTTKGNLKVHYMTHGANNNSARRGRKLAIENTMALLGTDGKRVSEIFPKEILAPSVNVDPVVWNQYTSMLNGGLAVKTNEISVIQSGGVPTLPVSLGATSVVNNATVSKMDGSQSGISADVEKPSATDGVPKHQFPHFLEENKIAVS
ATCGGGAC: -0.201
ATTTTTGC: 0.312
CGAGAGAA: -0.0783
GCCACCGA: -0.315
CACCAAAC: 0.00838
AGCTACTA: 0.146
AGTCCCTG: -0.24
ACAGCTGA: -0.184

Series 2 — cell line: HEK-293T/ACE2; tested at: 10 µM; time: 16 h; baseline: vehicle; endpoint: viability
Cc1cccc(C)c1NC(=O)C1CCCCN1C (centres unmarked): 100%
N[C@@H](Cc1ccc(N(CCCl)CCCl)cc1)C(=O)O: 89.2%
CCCc1nc(C(C)(C)O)c(C(=O)OCc2oc(=O)oc2C)n1Cc1ccc(-c2ccccc2-c2nnn[nH]2)cc1: 103%

Series 3 — technique: protein-binding microarray; molecule type: double-stranded DNA, one strand shown; matrix: in vitro; tested at: 940 nM top; notes: 60-bp whole probe; with: salmon DNA 0.4 mg/ml; baseline: random background probes; direction: higher = stronger binding; endpoint: fitted relative affinity; shared flanks, not repeated: GCCTAGCAC … GTCTTGATTCGCTTGACGCTGCTG
Target: Interferon regulatory factor 5, full length, phosphomimetic (IRF5, Homo sapiens, UniProt Q13568-2, residues 1-514, S451D/S453D/S456D/S462D)
TCATTTTTTTTTCTGATACTGTGCTAG: 1.49 z-score
GTCGGTATCGGACTGGGGACGTGCTAG: 4.21 z-score
GACGTTTTCAGTTTCGAGACGTGCTAG: 5.23 z-score
TTAGATCTTAGTATCGATTAGTGCTAG: 5.13 z-score
GACGATCTCCTACTGCTGACGTGCTAG: 0.378 z-score
GACTATATCAGTATCGAGACGTGCTAG: 1.97 z-score
TTAGAACTGAGTTGCGATTAGTGCTAG: 0.593 z-score
TTAGATATCGGGACTGGAATAGTGCTA: -0.0804 z-score

Series 4 — technique: RNA Bind-n-Seq; molecule type: RNA; matrix: in vitro; tested at: not given; notes: RNA with constant flanks, ends assumed; baseline: input RNA pool; direction: higher = stronger binding; endpoint: bound/input enrichment
Target: RING finger protein unkempt homolog, zinc fingers 1-6, GST-SBP tag (UNK, Homo sapiens, UniProt Q9C0B0, residues 30-357)
Sequence of UniProt Q9C0B0 (30-357, looked up): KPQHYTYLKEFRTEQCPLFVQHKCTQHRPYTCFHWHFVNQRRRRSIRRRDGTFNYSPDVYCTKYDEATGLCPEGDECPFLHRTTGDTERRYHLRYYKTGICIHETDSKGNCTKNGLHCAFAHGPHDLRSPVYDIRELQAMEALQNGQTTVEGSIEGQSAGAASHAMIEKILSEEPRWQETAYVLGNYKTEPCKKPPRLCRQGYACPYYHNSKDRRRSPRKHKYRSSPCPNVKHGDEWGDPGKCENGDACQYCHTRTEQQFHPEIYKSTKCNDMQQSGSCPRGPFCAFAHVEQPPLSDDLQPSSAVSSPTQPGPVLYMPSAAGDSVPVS
Shared flanks, not repeated: GGGAGUUCUACAGUCCGACGAUC … CAACAGAGGAUUGAGCAUCA
AGGAAGCAGCAGUUUUGUUGGCAUGUCAAGCUCCAGUUUCCUCAGAGUCAAGCAGAGUACACCGAAAAAAGAGUACCAGAUGAUAAAACUAUUAAUGAAAUUCUAAAGCCUUACAUCGAU: 0.422 ratio
AGAGCAUCAAGGGAACACCCAUCUGUCCAGGAGAAGAAGAAGUCCACCAUCUGGCAGUUCUUCCGUCGCCUCUUCAGCUCCUCAUCUAGCCCCCCUCCGGCCAAACGAUCCUACCCAUCU: 0.39 ratio
ACACACACCCUAGAAUGCUCGCUUUGCAGCACAGGCAGGAGCAGCAGCAAGCAGCAGGUGUUCCGAUCCUUGGUUUUGAGAAAUUCCCCCCUAAGUAUGUGGCAAUAAGUAUAAGCCACU: 0.14 ratio
UGCUGUACUCUUGCUGAUGGCUGCUAGAUUUUAAUUUAUUUGUUUCCCUACUUGAUAAUAUCCGUGAUUCUGAUUUCAGUUUUUCAUUUGUUUUGCUUUUGUUUUUUUCCUCAUGUAACA: 17.9 ratio
CUCCGUCUGCGAUGCAGGGCGGCGGCCUGUAAUCCCAGCGACCGCCAGGAGUGGCAGAAUUCCGUGACAUUUGGAAGCUUUUCAAACAUGGUUCCCUGUAGUCAUCCAUAUAUUGGUACC: 0.636 ratio

Series 5 — observed: enzyme activity; mode: inhibitor; tested at: 20 µM; endpoint: inhibition
Target: Replicase polyprotein 1ab, polymerase (rep, Severe acute respiratory syndrome coronavirus 2, UniProt P0DTD1)
O=C(Cc1cccc(OC(F)(F)F)c1)Nc1ccc(CCCCc2nnc(NC(=O)Cc3ccccn3)s2)nn1: -0.87%
CCc1cccc(CC)c1NC1=NCCN1: 0.27%
O=C(O)c1cc(C(=O)O)c(C(=O)N(Cc2cccc(Oc3ccccc3)c2)[C@H]2CCCc3ccccc32)cc1C(=O)O: 1.1%
CNC(=O)[C@@H](NC(=O)[C@H](CC(C)C)[C@H](O)C(=O)NO)C(C)(C)C: -6.77%
CCCc1nc(C(C)(C)O)c(C(=O)O)n1Cc1ccc(-c2ccccc2-c2nnn[nH]2)cc1: -4.22%
CN(C)CCN(Cc1ccccc1)c1ccccn1: -3.7%
CN(C)CC/C=C1\c2ccccc2CSc2ccccc21: -4.25%
O=C(O)C1=CO[C@@H](O[C@@H]2O[C@H](CO)[C@@H](O)[C@H](O)[C@H]2O)[C@@H]2C(CO)=CC[C@H]12: -1.9%
C[C@@H](NCCc1ccc(O)cc1)[C@@H](O)c1ccc(O)cc1 (racemic): 11.6%
C[N+]1(C)CCC(OC(=O)C(c2ccccc2)c2ccccc2)CC1: 0.86%
COc1ccc(C2(O)OC(=O)C(c3ccc4c(c3)OCO4)=C2Cc2cc(OC)c(OC)c(OC)c2)cc1 (centres unmarked): -5.26%
CCCCCCCCCCCCCCCCCCOC[C@H](COP(=O)([O-])OCC[N+](C)(C)C)OC: -5.28%
COc1cccc(-c2cc(=O)c3ccccc3o2)c1N: -7.4%
N=C(N)SCCc1ccc(OCc2ccc([N+](=O)[O-])cc2)cc1: 2.1%
Cc1cc(NC(=O)C2=C(O)c3ccccc3S(=O)(=O)N2C)no1: -0.05%
COc1ccc2cc(-c3cc(-c4cc(Cl)cc(Cl)c4)nn3[C@@H](C)c3ccc(C(=O)NCCC(=O)O)cc3)ccc2c1: -8.81%
C[C@@H]1Cc2c([nH]c3ccccc23)[C@@H](c2c(F)cc(/C=C/C(=O)O)cc2F)N1CC(C)(C)F: -2.78%
CNC(=O)[C@H](Cc1ccccc1)NC(=O)[C@H](CC(C)C)[C@H](CSc1cccs1)C(=O)NO: -1.13%
COC(=O)Nc1nc2cc([S+]([O-])c3ccccc3)ccc2[nH]1 (centres unmarked): -0.16%
COc1ccc(C2CC(c3c(O)cc(C)oc3=O)=NCCS2)c(OC)c1 (centres unmarked): 2.08%
Oc1c(CN2CCCC2)cc(COCc2ccccc2)c2cccnc12: -0.3%
Nc1[nH]nc2nc3ccccc3nc12: -9.54%
N[C@@H](CSCCCO)C(=O)O: -7.05%
O=C(NCCO[N+](=O)[O-])c1cccnc1: -0.56%
C[N+]1(C)[C@@H]2CC[C@H]1C[C@@H](OC(=O)C(O)c1ccccc1)C2 (some centres unmarked): 5.96%

Series 6 — observed: enzyme activity; mode: inhibitor; tested at: 20 µM; notes: hit confirmation; endpoint: inhibition
Target: Replicase polyprotein 1ab, main protease (rep, Severe acute respiratory syndrome coronavirus 2, UniProt P0DTD1)
CC(C)Cc1sc(N)nc1-c1ccc(P(=O)(O)O)o1: 17.5%
C/N=c1/nc(-c2ccccc2)n(-c2ccccc2)s1: 100%
O=C(O)C(O)Cc1ccc(O)c(O)c1 (centres unmarked): 85.6%
O=C(/C=C/c1ccc2ccc(C(F)(F)F)cc2n1)c1ccncc1: 79.2%
